Measurements of several laboratories.
Protocols differ between the studies behind these lines. ± marks the error that the study gave. Converted amounts (≈) assume the structure as drawn.
FFAR1: Free fatty acid receptor 1 (FFAR1, Homo sapiens, UniProt O14842)
Chain of UniProt O14842 (whole entry, looked up): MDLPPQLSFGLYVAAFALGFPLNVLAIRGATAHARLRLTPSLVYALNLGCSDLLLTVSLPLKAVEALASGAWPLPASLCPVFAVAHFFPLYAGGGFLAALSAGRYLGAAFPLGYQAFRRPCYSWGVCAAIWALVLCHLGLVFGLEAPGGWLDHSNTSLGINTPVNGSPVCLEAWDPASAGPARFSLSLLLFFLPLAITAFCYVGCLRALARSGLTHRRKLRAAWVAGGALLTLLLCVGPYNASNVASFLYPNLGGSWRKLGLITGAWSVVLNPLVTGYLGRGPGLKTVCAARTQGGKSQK
LPAR2: Lysophosphatidic acid receptor 2 (LPAR2, Homo sapiens, UniProt Q9HBW0)
Chain of UniProt Q9HBW0 (whole entry, looked up): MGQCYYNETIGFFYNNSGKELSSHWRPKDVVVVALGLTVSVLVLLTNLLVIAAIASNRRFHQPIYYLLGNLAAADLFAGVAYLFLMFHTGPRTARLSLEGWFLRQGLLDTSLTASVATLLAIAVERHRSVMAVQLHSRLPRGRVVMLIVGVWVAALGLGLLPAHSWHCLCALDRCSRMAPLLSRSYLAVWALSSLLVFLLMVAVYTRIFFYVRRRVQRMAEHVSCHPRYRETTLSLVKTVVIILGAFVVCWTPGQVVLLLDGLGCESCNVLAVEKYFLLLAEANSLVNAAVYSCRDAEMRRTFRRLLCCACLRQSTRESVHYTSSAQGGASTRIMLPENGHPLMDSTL
SCTR: Secretin receptor (SCTR, Homo sapiens, UniProt P47872)
Chain of UniProt P47872 (whole entry, looked up): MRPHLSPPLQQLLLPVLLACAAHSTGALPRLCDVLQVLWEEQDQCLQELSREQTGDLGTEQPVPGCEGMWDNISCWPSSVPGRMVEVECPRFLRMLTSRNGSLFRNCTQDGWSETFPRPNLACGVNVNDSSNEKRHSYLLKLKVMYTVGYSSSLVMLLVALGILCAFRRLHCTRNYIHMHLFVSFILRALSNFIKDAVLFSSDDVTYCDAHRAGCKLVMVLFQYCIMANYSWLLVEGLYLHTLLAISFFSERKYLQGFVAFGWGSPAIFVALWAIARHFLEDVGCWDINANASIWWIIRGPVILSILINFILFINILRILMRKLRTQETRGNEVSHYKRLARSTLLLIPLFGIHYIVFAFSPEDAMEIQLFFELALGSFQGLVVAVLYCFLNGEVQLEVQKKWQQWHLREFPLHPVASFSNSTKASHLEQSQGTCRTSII
DRD4: D(4) dopamine receptor (DRD4, Homo sapiens, UniProt P21917)
Chain of UniProt P21917 (whole entry, looked up): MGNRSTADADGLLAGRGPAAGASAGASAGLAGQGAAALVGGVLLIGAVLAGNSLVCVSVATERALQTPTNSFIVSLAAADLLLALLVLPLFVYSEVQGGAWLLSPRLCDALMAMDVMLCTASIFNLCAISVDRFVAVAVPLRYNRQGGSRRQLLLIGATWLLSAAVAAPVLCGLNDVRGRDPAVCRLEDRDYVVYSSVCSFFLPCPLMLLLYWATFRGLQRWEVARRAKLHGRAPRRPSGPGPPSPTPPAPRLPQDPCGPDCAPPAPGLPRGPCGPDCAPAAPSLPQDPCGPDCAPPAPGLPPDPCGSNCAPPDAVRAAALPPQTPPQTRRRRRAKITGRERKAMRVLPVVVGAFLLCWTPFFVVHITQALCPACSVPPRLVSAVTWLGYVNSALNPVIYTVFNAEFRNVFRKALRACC
NMBR: Neuromedin-B receptor (NMBR, Homo sapiens, UniProt P28336)
Chain of UniProt P28336 (whole entry, looked up): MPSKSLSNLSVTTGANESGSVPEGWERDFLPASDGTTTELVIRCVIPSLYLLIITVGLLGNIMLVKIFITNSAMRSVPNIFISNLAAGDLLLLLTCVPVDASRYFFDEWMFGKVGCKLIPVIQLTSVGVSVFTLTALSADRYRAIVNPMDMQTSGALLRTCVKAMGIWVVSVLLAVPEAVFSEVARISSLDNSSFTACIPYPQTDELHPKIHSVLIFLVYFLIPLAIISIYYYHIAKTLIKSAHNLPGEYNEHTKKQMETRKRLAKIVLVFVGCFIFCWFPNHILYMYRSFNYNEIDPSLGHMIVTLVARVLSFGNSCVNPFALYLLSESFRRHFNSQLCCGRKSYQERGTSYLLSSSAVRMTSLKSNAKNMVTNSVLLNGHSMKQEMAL
Chain of UniProt P50052 (whole entry, unmodified, looked up): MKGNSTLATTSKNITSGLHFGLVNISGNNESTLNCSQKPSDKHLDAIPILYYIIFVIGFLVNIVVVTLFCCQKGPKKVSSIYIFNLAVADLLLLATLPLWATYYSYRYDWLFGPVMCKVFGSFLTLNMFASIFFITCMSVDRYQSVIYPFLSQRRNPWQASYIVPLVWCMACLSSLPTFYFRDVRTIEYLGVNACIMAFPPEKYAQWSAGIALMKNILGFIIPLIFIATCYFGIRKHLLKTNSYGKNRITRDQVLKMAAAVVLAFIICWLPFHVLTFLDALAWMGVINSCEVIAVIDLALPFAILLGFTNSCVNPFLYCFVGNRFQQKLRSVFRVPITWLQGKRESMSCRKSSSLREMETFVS
Chain of UniProt O43526 (whole entry, looked up): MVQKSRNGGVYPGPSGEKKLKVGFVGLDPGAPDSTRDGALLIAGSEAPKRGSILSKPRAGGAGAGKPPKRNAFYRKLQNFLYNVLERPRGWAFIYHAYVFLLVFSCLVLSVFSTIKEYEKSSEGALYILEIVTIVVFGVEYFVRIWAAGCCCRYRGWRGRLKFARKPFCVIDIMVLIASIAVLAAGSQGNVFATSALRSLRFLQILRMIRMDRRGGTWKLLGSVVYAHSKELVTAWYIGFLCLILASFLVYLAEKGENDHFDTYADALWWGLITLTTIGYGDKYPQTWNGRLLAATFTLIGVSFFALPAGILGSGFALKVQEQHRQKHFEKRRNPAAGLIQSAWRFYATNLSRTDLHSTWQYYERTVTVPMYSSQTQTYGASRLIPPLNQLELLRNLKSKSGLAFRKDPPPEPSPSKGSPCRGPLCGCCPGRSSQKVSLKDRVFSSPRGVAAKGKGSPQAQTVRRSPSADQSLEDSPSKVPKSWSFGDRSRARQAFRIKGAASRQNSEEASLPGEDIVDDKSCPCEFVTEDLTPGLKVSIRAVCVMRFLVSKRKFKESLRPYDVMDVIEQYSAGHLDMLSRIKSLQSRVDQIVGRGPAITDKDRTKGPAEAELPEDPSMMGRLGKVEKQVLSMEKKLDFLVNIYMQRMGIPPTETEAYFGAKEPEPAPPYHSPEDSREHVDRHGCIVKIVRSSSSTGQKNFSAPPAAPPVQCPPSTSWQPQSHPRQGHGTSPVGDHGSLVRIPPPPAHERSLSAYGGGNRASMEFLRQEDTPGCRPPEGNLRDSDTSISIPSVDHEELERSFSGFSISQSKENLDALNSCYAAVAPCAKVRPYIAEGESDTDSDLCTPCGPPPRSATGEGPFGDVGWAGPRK
Chain of UniProt P54646 (whole entry, looked up): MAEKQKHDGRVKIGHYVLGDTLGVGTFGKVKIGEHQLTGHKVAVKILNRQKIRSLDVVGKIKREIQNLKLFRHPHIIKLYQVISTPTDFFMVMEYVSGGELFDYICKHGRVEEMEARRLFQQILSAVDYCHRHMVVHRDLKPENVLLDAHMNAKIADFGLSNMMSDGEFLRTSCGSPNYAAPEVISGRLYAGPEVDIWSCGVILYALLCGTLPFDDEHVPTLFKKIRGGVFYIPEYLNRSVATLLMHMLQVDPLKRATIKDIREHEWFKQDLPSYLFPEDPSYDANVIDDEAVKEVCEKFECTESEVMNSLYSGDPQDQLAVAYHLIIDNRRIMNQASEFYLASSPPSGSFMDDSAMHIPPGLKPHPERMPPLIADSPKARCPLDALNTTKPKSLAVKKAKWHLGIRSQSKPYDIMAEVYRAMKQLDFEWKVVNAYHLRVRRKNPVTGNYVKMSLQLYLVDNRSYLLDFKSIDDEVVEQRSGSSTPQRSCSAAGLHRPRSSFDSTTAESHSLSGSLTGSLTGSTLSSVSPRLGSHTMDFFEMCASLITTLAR
Chain of UniProt Q9NR97 (whole entry, looked up): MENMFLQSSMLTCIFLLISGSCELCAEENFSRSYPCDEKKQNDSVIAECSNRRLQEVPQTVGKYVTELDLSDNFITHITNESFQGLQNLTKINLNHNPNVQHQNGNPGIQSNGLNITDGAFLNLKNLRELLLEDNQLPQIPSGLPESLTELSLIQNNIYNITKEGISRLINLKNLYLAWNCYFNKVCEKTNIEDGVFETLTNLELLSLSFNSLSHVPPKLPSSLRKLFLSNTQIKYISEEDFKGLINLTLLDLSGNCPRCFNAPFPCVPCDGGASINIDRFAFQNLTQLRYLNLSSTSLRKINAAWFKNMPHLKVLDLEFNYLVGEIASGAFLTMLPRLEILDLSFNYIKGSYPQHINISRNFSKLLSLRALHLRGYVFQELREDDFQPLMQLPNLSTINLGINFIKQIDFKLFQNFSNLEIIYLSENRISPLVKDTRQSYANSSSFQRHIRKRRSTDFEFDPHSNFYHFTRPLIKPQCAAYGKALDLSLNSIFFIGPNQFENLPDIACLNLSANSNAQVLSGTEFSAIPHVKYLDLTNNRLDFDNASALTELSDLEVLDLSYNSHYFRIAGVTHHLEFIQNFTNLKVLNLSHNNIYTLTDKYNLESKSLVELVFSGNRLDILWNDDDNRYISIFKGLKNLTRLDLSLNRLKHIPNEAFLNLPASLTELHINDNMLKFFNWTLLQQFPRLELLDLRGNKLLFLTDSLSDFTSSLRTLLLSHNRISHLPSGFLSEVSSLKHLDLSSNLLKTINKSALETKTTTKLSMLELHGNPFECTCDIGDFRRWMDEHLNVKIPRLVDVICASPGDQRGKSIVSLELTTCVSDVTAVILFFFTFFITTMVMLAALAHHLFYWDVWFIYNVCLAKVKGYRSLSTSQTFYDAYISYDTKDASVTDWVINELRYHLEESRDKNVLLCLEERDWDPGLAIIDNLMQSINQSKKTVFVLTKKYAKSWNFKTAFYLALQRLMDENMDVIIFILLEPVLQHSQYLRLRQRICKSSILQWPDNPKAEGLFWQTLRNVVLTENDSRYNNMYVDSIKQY
Chain of UniProt Q9Y478 (whole entry, looked up): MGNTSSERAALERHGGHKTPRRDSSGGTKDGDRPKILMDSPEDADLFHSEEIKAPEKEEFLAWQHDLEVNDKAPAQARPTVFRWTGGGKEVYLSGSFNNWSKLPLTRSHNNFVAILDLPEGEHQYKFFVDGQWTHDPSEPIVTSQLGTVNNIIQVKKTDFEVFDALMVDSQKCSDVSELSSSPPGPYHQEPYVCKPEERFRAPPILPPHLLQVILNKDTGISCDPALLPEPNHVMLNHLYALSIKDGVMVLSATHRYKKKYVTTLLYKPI

CC=CC(CC(=O)O)c1ccc(OCc2ccc(-c3cc(OC)ccc3F)cc2)cc1 (stereo not drawn)
EC50 (FFAR1; IP turnover, agonist; COS-7 transient): 0.0501 µM

CCCCc1oc2ccc(NS(C)(=O)=O)cc2c1C(=O)c1ccc(OCCCN(CCCC)CCCC)cc1
EC50 (Bile acid receptor (NR1H4, Homo sapiens, UniProt Q96RI1); coactivator recruitment, agonist, TR-FRET): 26.4 µM

CCCCCCCC/C=C\CCCCCCCC(=O)OC[C@@H]1OCC=C[C@H]1OP(=O)(O)S (stereo partly drawn)
EC50 (LPAR2; G protein activation, agonist): 1.9 µM

COc1cccc(-c2cc(C(F)(F)F)nc(NCc3ccccc3)n2)c1
EC50 (SCTR; cAMP, agonist): 45 µM

Cc1sc2cc(Cl)ccc2c1-c1ccc(N2CCO[C@H](CNC3CCC3)C2)c(C(=O)O)c1
EC50 (Kcnn4 (Rattus norvegicus, UniProt Q9QYW1); channel activity, activator): 0.393 µM

CC1(C)CCOC1CN1CCOCC1Cc1c[nH]c2ccccc12 (stereo not drawn)
EC50 (HTR2C (Homo sapiens, UniProt P28335)): 4.37 µM

Cc1ccccc1NC(=O)CSc1nc(-c2ccc(Cl)cc2)cc(C(F)(F)F)n1
EC50 (SCTR; increase of tracer binding, TR-FRET; HEK293 membranes; together with: Fluo-Sec 6 nM): 1 ± 0.8 µM

CN(CCNc1ncc(C#N)cc1Cl)Cc1ccc(F)cc1
EC50 (DRD4; cAMP, agonist): 32.2 µM

O=P(O)(O)O[C@@H]1[C@@H](O)[C@H](O)[C@H](O)[C@H](O)[C@H]1OP(=O)(O)O
EC50 (Itpr1 (Rattus norvegicus, UniProt P29994); calcium signal, agonist): 5.01 µM

Cc1cc(N/C=C(\C(=O)NC2CCC2)C(=O)c2ccc(Cl)cc2Cl)no1
EC50 (GABA-A receptor; alpha-1/beta-2/gamma-2 (Homo sapiens, UniProt P14867+P18507+P47870); GABA current potentiation, positive modulator, two-electrode voltage clamp; Xenopus laevis oocytes; 30 s preincubation, together with: GABA EC10): 0.044 ± 0.003 µM

COc1cc(CCC(C)=O)ccc1O
IC50 (mAb 5-D8; antibody binding, indirect competitive ELISA; together with: coating antigen hapten 1-OVA): > 4 µg/mL

NCCCC[C@H](N)C(=O)N[C@@H](CCCN=C(N)N)C(=O)N1CCC[C@H]1C(=O)N1CCC[C@H]1C(=O)NCC(=O)N[C@@H](Cc1ccccc1)C(=O)N[C@@H](CO)C(=O)N1CCC[C@H]1C(=O)N[C@@H](Cc1ccccc1)C(=O)N[C@@H](CCCN=C(N)N)C(=O)O
EC50 (BDKRB2 (Homo sapiens, UniProt P30411); calcium signal, agonist, fluorescence): 0.00078 µM

NS(=O)(=O)Nc1ncnc(OCCOc2ncc(Br)cn2)c1-c1ccc(Br)cc1
Vmax (metabolite formation; female Sprague-Dawley rat, liver microsomes; 150 mg/kg daily for 4 weeks): 195 ± 15 pmol/min/mg

CCCC[C@H](NC(=O)[C@H](Cc1ccccc1)NC(=O)[C@H](Cc1c[nH]cn1)NC(=O)CCNC(=O)[C@@H](NC(=O)[C@H](C)NC(=O)[C@H](Cc1c[nH]c2ccccc12)NC(=O)[C@H](CC(N)=O)NC(=O)[C@H](N)Cc1ccc(O)cc1)C(C)C)C(N)=O
EC50 (NMBR; inositol phosphate generation, agonist; BALB/3T3 expressing human NMBR; 45 min, 37 °C; reference: 1 µM neuromedin B): 0.00162 ± 3e-05 µM

CCCCC/C=C/C(=O)CCc1ccc(O)c(OC)c1
IC50 (mAb 4-AT4; antibody binding, indirect competitive ELISA; together with: coating antigen hapten 1-OVA): 0.0257 µg/mL (≈ 0.0928 µM)

CCCCCCCC/C=C\CCCCCCCC(=O)O[C@H]1C=CCO[C@H]1COP(=O)(O)S (stereo partly drawn)
EC50 (LPAR2; G protein activation, agonist): 2 µM

CSCC[C@H](NC(=O)[C@H](Cc1ccccc1)NC(=O)[C@H](Cc1c[nH]cn1)NC(=O)CNC(=O)[C@@H](NC(=O)[C@H](C)NC(=O)[C@H](Cc1c[nH]c2ccccc12)NC(=O)[C@H](CC(C)C)NC(=O)[C@@H]1CCC(=O)N1)[C@@H](C)O)C(N)=O
EC50 (NMBR; inositol phosphate generation, agonist; BALB/3T3 expressing human NMBR; 45 min, 37 °C; reference: 1 µM neuromedin B): 9e-05 ± 3e-05 µM

COc1ccc(NC(=O)Nc2cccc(Cl)c2)cn1
EC50 (KCNQ2 (Homo sapiens, UniProt O43526); ion current, agonist, patch clamp): 1.6 µM

O=C(c1cc2c(s1)CCCCC2)N1CCC(n2c(=O)[nH]c3ccccc32)CC1
EC50 (Trpc6 (Mus musculus, UniProt Q61143, F640W); channel activation, agonist, whole-cell patch clamp): 0.27 ± 0.05 µM

CC(C)C[C@H](NC(=O)[C@H](CC(C)C)NC(=O)[C@H](Cc1c[nH]cn1)NC(=O)[C@@H](C)NC(=O)[C@@H](NC(=O)[C@H](C)NC(=O)[C@H](Cc1c[nH]c2ccccc12)NC(=O)[C@H](CCC(N)=O)NC(=O)[C@H](N)Cc1ccccc1)C(C)C)C(N)=O
EC50 (NMBR; inositol phosphate generation, agonist; BALB/3T3 expressing human NMBR; 45 min, 37 °C; reference: 1 µM neuromedin B): 0.331 ± 0.014 µM

COc1ccc(-c2cc(C(F)(F)F)nc(SCC(=O)N(C)c3ccccc3)n2)cc1OC
EC50 (SCTR; cAMP, agonist): 22 µM

O=C1NC(=O)C(C2CCOc3cc(Oc4ccc(C(F)(F)F)cc4Cl)ccc32)S1 (stereo not drawn)
EC50 (FFAR1; cAMP accumulation, agonist; COS-7, transiently transfected): > 10 µM

CCCCCCCC/C=C\CCCCCCCC(=O)OC[C@@H]1OCCC[C@H]1OP(=O)(O)S (stereo partly drawn)
EC50 (LPAR2; G protein activation, agonist): 2.3 µM

Cc1ccc(Oc2nc3cc(-c4ccc5c(ccn5C)c4)c(Cl)cc3[nH]2)cc1C(=O)O
EC50 (PRKAA2/PRKAB1, with gamma1 (Homo sapiens, UniProt P54646+Q9Y478); allosteric activator; AMPK complex α2β1γ1, together with: SAMS peptide substrate): 0.09 µM

COc1ccc(CNc2nc(-c3ccc(OC)c(OC)c3)cc(C(F)(F)F)n2)cc1
EC50 (SCTR; increase of tracer binding, TR-FRET; HEK293 membranes; together with: Fluo-Sec 6 nM): 2.8 ± 2.6 µM

CCCc1nc2ccc(N(Cc3ccco3)C(=O)c3ccccc3)cc2c(=O)n1Cc1ccc(-c2ccccc2-c2nnn[nH]2)cc1
Ki (AGTR2 (Homo sapiens, UniProt P50052, R182K); ligand displacement, radioligand; cell membranes): 0.00676 µM

COc1ccc(-c2cc(C(F)(F)F)nc(S(=O)(=O)CCCC(=O)Nc3ccccc3F)n2)cc1OC
EC50 (SCTR; cAMP, agonist): 24 µM

CC(C)C[C@@H](CN[C@H](Cc1ccccc1)C(N)=O)NC(=O)[C@H](Cc1c[nH]cn1)NC(=O)CNC(=O)[C@@H](NC(=O)[C@H](C)NC(=O)[C@H](Cc1c[nH]c2ccccc12)NC(=O)[C@H](CCC(N)=O)NC(=O)[C@H](N)Cc1ccccc1)C(C)C
EC50 (NMBR; inositol phosphate generation, agonist; NCI-H1299): 0.528 ± 0.026 µM

CCCC[C@H](NC(=O)[C@H](Cc1ccccc1)NC(=O)[C@H](Cc1c[nH]cn1)NC(=O)CCNC(=O)[C@@H](NC(=O)[C@H](C)NC(=O)[C@H](Cc1c[nH]c2ccccc12)NC(=O)[C@H](CCC(N)=O)NC(=O)[C@H](N)Cc1ccccc1)C(C)C)C(N)=O
EC50 (NMBR; inositol phosphate generation, agonist, [3H]inositol phosphate; NCI-H1299 cells expressing human NMBR; 45 min, 37 °C, together with: NMB 1 µM; reference: NMB): 0.0012 ± 3e-05 µM

CCCCOc1nc(N)c2[nH]c(=O)n(CCCN(CCCN3CCOCC3)Cc3cccc(CC(=O)O)c3)c2n1
EC50 (TLR8 (Homo sapiens, UniProt Q9NR97); reporter gene, agonist): > 10 µM

O[C@@H]1Cc2ccccc2[C@H]1NCc1cn2ccc(Br)cc2n1
EC50 (DRD4; cAMP, agonist): 22.1 µM

CSCC[C@H](NC(=O)[C@H](CC(C)C)NC(=O)[C@H](Cc1cnc[nH]1)NC(=O)CNC(=O)[C@@H](NC(=O)[C@H](C)NC(=O)[C@H](Cc1c[nH]c2ccccc12)NC(=O)[C@H](Cc1cnc[nH]1)NC(=O)[C@H](CC(N)=O)NC(=O)CN)C(C)C)C(N)=O
EC50 (NMBR; inositol phosphate generation, agonist; NCI-H1299 expressing human NMBR; 45 min, 37 °C; reference: 1 µM neuromedin B): 0.117 ± 0.002 µM

COc1ccc(CNc2nc(-c3ccccc3OC)cc(C(F)(F)F)n2)cc1
EC50 (SCTR; increase of tracer binding, TR-FRET; HEK293 membranes; together with: Fluo-Sec 6 nM): 2.5 ± 2.1 µM

CCCC[C@H](NC(=O)[C@H](Cc1ccccc1)NC(=O)[C@H](Cc1c[nH]cn1)NC(=O)CCNC(=O)[C@@H](NC(=O)[C@H](C)NC(=O)[C@H](Cc1c[nH]c2ccccc12)NC(=O)[C@H](CC(N)=O)NC(=O)[C@@H](Cc1ccc(O)cc1)NC(=O)[C@@H](CO)NC(=O)[C@H](CO)NC(=O)[C@H](N)CO)C(C)C)C(N)=O
EC50 (NMBR; inositol phosphate generation, agonist; NCI-H1299 expressing human NMBR; 45 min, 37 °C; reference: 1 µM neuromedin B): 0.00316 ± 0.00013 µM

COc1ccc(-c2cc(C(F)(F)F)nc(S(=O)(=O)CCCC(=O)Nc3c(F)cc(F)cc3Br)n2)cc1OC
EC50 (SCTR; cAMP, agonist): 18 µM

COc1ccc(C(=O)c2c(C(=O)NCCCN(C)C)oc3ccc(Cl)cc3c2=O)cc1OC
EC50 (GHSR (Homo sapiens, UniProt Q92847); G protein activation, agonist, BRET): > 1 µM

COc1ccc(CCNc2nc(-c3ccccc3)cc(C(F)(F)F)n2)cc1OC
EC50 (SCTR; increase of tracer binding, TR-FRET; HEK293 membranes; together with: Fluo-Sec 6 nM): 18 ± 23 µM

CCCCOc1nc(N)c2[nH]c(=O)n(CCCN(CCCN3CCOCC3)Cc3cccc(CC(=O)OC)c3)c2n1
EC50 (TLR7 (Homo sapiens, UniProt Q9NYK1); reporter gene, agonist): 0.1 µM

CCc1nc2ccc(N(Cc3ccccc3)C(=O)c3cccs3)cc2c(=O)n1Cc1ccc(-c2ccccc2-c2nn[nH]n2)cc1
Ki (AGTR2 (Homo sapiens, UniProt P50052, T178A); ligand displacement, radioligand; cell membranes): 0.00269 µM
